Experimental data gathered from unrelated publications.
Compare with care: the assays were run in different laboratories. Numbers after ± are the reported error.

SMILES = CC1CCC2C(C)C(OC(=O)CCC(=O)N3CCN(CC(=O)Nc4ccc([N+](=O)[O-])c(C(F)(F)F)c4)CC3)OC3OC4(C)CCC1C32OO4 (stereo not drawn); target or system = 7702 normal human cells; test = cell growth, CCK-8; conditions = 48 h; endpoint = IC50; result = 4.19 µM
SMILES = O=C1C=CC(=C(c2ccc(O)cc2)c2c(C#Cc3ccc(O)cc3)cccc2-c2ccc(O)cc2)C=C1; target or system = NCI-H460; test = cell growth or viability, MTT; conditions = 48 h; endpoint = IC50; result = 13.2 µM
SMILES = CCC1(c2ccc(NC(=O)CCC(=O)OC3OC4OC5(C)CCC6C(C)CCC(C3C)C46OO5)cc2)CCC(=O)NC1=O (mixture of isomers); target or system = 7702 normal human cells; test = cell growth, CCK-8; conditions = 48 h; endpoint = IC50; result = > 50 µM
SMILES = CCOc1ccccc1-n1c(CN2CCNCC2)nc2ccccc2c1=O; target or system = CAL-33; test = cell growth or viability; conditions = 72 h; endpoint = IC50; result = 0.154 µM
SMILES = Cc1cc(Nc2nc(C[C@@]3(C(=O)O)CCN(Cc4cccc(Cl)c4F)[C@H](C)C3)cc(C)c2F)[nH]n1; target or system = HCC1395; test = cell growth or viability, ATP luminescence; conditions = 5 days; endpoint = IC50; result = 0.107 µM
SMILES = CC(=O)O[C@H]1C[C@@H](C)O[C@H]2O[C@@H]3C[C@@H]4CC[C@@H]5[C@H](CC[C@]6(C)[C@@H](C7=CC(=O)OC7)CC[C@]56O)[C@@]4(C)C[C@H]3O[C@]21O; target or system = L6; test = cell growth or viability, resazurin; conditions = 72 h; endpoint = IC50; result = 1.02 µM
SMILES = CC(C)C[C@H](NC(=O)[C@H](Cc1ccccc1)NC(=O)[C@H](C)NC(=O)[C@@H](CS)NC(=O)CNC(=O)[C@H](N)CO)C(=O)N[C@@H](CO)C(=O)N[C@H](C(=O)N[C@@H](CCCCN)C(=O)N[C@@H](CCCCN)C(=O)N[C@@H](CCC(N)=O)C(=O)N[C@@H](Cc1ccccc1)C(=O)N[C@@H](CCC(=O)O)C(=O)N[C@@H](CCC(=O)O)C(=O)N[C@@H](CC(C)C)C(=O)N[C@H](C(=O)N[C@@H](CC(C)C)C(=O)NCC(=O)N[C@@H](CCC(=O)O)C(=O)N[C@@H](Cc1ccccc1)C(=O)N[C@@H](CC(C)C)C(=O)N[C@H](CCCCN)C(=O)N[C@H](CC(C)C)C(=O)N[C@H](CC(=O)O)C(=O)N[C@@H](CCCNC(=N)N)C(=O)N[C@H](CCCNC(=N)N)C(=O)N[C@@H](CCCNC(=N)N)C(=O)N[C@@H](CCCCN)C(=O)O)[C@@H](C)O)C(C)C; target or system = A549 SMAC knockout; test = cell death; conditions = 24 h; endpoint = IC50; result = 70 µM
SMILES = CSc1ccc2c(c1)c(CCN)c(C)n2Cc1ccc(Cl)cc1; target or system = HMC3; test = cell growth or viability, imaging; endpoint = IC50; result = 4.54 µM
SMILES = CC(C)=CCc1c(O)cc2c(c1O)C(=O)CC(c1ccc(O)cc1)O2 (stereo not drawn); target or system = HeLa; test = cell growth or viability, MTT; conditions = 48 h; endpoint = IC50; result = 27.9 µM
SMILES = Cc1ccccc1/C=C/C(=O)N[C@H]1COC(=O)[C@H](CC(=O)O)NC(=O)[C@H]([C@@H](O)C(=O)c2ccccc2N)NC(=O)[C@@H](Cc2ccccc2)NC(=O)[C@@H](NC(=O)[C@@H](Cc2ccccc2)NC(=O)CN)[C@@H](C)OC1=O; target or system = SK-HEP1; endpoint = IC50; result = > 20 µM
SMILES = CC(C)C12OC1C1OC13C1(C)CCC4=C(COC4=O)C1CC1OC13C2OC(=O)CCCOC1OC(CO)C(O)C(O)C1O (stereo not drawn); target or system = SK-HEP1; test = cell growth or viability, XTT; conditions = 47 h; endpoint = IC50; result = 5.9 µM
SMILES = CN(C)C(=O)[C@@H](NC(=O)c1cc(-c2ccnn2C)ccc1-c1ccc(C(F)(F)F)cc1)c1cccc(C(F)(F)F)c1; target or system = NKL effector, Ba/F3-ULBP5 target; test = NKG2D-mediated cell killing, inhibitor; endpoint = IC50; result = 0.4 µM
SMILES = [CH3][Ti+2][O]C(=O)c1ccc([S][Au][PH](c2ccccc2)(c2ccccc2)c2ccccc2)cc1.c1cc[cH-]c1.c1cc[cH-]c1; target or system = HEK-293T; test = cell growth or viability, XTT; conditions = 24 h; endpoint = IC50; result = 1.67 µM
SMILES = O=C1NC2(CC2)COc2ncc(F)cc2[C@H]2COCCN2c2ccn3ncc1c3n2; test system = Sprague-Dawley rat, female, thymus; conditions = oral, 5 mg/kg/day, 4 weeks, end of treatment; endpoint = organ-to-body weight ratio; result = 0.169 ± 0.04%
SMILES = CC(C)C12OC1C1OC13C1(C)CCC4=C(COC4=O)C1CC1OC13C2OC(=O)CCC(=O)OC1OC(CO)C(O)C(O)C1O (stereo not drawn); target or system = MDA-MB-453; test = cell growth or viability, XTT; conditions = 47 h; endpoint = IC50; result = 0.53 µM
SMILES = CSc1ccc2c(c1)c(CCN)c(C)n2Cc1ccccc1Cl; target or system = BV-2; test = nuclear intensity, high-content imaging; conditions = geometric mean; endpoint = IC50; result = 4.98 µM
SMILES = O=C1C=CC(=O)c2c(O)cccc21; target or system = HuCC-A1; test = cell growth or viability, MTT; endpoint = IC50; result = 12.4 µM
SMILES = CC(=O)[O][Pt]([NH2])([NH2])([Cl])([Cl])[O]C(=O)C(Cl)Cl; target or system = LoVo; test = cell growth or viability, MTT; conditions = 72 h; endpoint = IC50; result = 1.27 µM
SMILES = Cc1cc(Oc2nc(N3CC[C@@H](c4ccncc4)C3)ncc2F)[nH]n1; target or system = LoVo; test = cell proliferation; test system = colon cancer; endpoint = IC50; result = 25.7 µM
SMILES = C[C@H]1[C@H](OC(=O)CCC(=O)OCCC2CCN(CC(=O)Nc3ccc([N+](=O)[O-])c(C(F)(F)F)c3)CC2)O[C@@H]2O[C@@]3(C)CC[C@H]4[C@H](C)CC[C@@H]1[C@@]24OO3; target or system = 7702 normal human cells; test = cell growth, CCK-8; conditions = 48 h; endpoint = IC50; result = 26.1 µM
SMILES = c1cnc2c(c1)c1nccnc1c1cccnc12; target or system = BEL-7404; test = cell growth or viability, MTT; conditions = 48 h; endpoint = IC50; result = > 50 µM
SMILES = Cc1ccccc1/C=C/C(=O)N[C@@H]1C(=O)N[C@@H](Cc2ccccc2)C(=O)N[C@H](CC(C)C)C(=O)N[C@@H](C(C)C)C(=O)N[C@@H](C)C(=O)N[C@H](CCC(N)=O)C(=O)NCC(=O)N2CCC[C@H]2C(=O)N[C@@H](CCCNC(=N)N)C(=O)N[C@H](Cc2ccccc2)C(=O)O[C@H]1C; target or system = SK-HEP1; endpoint = IC50; result = > 20 µM
SMILES = O=C(C[Se]C(=O)c1cccs1)Nc1cccc(C(F)(F)F)c1; target or system = HaCaT; test = cell growth or viability, MTS; conditions = 48 h; endpoint = IC50; result = 29.3 µM
SMILES = O=C(c1cc(Cc2n[nH]c(=O)c3ccccc23)ccc1F)N1CC(CNC2CC2)C1; target or system = IGROV-1; endpoint = IC50; result = 0.0115 µM
